Measurements of several laboratories.
Several values in a cell are separate wells, animals, samples, runs or records. ± marks the error that the study gave.
B1: CDC48A 1-463 (Arabidopsis thaliana, UniProt P54609); chain MSTPAESSDSKSKKDFSTAILERKKSPNRLVVDEAINDDNSVVSLHPATMEKLQLFRGDTILIKGKKRKDTVCIALADETCEEPKIRMNKVVRSNLRVRLGDVISVHQCPDVKYGKRVHILPVDDTVEGVTGNLFDAYLKPYFLEAYRPVRKGDLFLVRGGMRSVEFKVIETDPAEYCVVAPDTEIFCEGEPVKREDEERLDDVGYDDVGGVRKQMAQIRELVELPLRHPQLFKSIGVKPPKGILLYGPPGSGKTLIARAVANETGAFFFCINGPEIMSKLAGESESNLRKAFEEAEKNAPSIIFIDEIDSIAPKREKTNGEVERRIVSQLLTLMDGLKSRAHVIVMGATNRPNSIDPALRRFGRFDREIDIGVPDEIGRLEVLRIHTKNMKLAEDVDLERISKDTHGYVGADLAALCTEAALQCIREKMDVIDLEDDSIDAEILNSMAVTNEHFHTALGNSN
B2: Pigr 19-135 (Mus musculus, UniProt O70570); chain KSPIFGPQEVSSIEGDSVSITCYYPDTSVNRHTRKYWCRQGASGMCTTLISSNGYLSKEYSGRANLINFPENNTFVINIEQLTQDDTGSYKCGLGTSNRGLSFDVSLEVSQVPELPS
B3: SRS2 1107-1174 Q1155E (Saccharomyces cerevisiae, UniProt P12954); N-terminal cysteine BODIPY-FL; chain CHNPDDTTVDNRPIISNAKFLADAAMKKTQKFSKKVKNEPASSQMDIFSELSRAKKKSKLNNGEIIVID
B4: P4HB abb'x fragment (Homo sapiens); chain DAPEEEDHVLVLRKSNFAEALAAHKYLLVEFYAPWCGHCKALAPEYAKAAGKLKAEGSEIRLAKVDATEESDLAQQYGVRGYPTIKFFRNGDTASPKEYTAGREADDIVNWLKKRTGPAATTLPDGAAAESLVESSEVAVIGFFKDVESDSAKQFLQAAEAIDDIPFGITSNSDVFSKYQLDKDGVVLFKKFDEGRNNFEGEVTKENLLDFIKHNQLPLVIEFTEQTAPKIFGGEIKTHILLFLPKSVSDYDGKLSNFKTAAESFKGKILFIFIDSDHTDNQRILEFFGLKKEECPAVRLITLEEEMTKYKPESEELTAERITEFCHRFLEGKIKPHLMSQELPEDWDKQP
B5: YWHAH (Homo sapiens, UniProt Q04917); sequence looked up; chain MGDREQLLQRARLAEQAERYDDMASAMKAVTELNEPLSNEDRNLLSVAYKNVVGARRSSWRVISSIEQKTMADGNEKKLEKVKAYREKIEKELETVCNDVLSLLDKFLIKNCNDFQYESKVFYLKMKGDYYRYLAEVASGEKKNSVVEASEAAYKEAFEISKEQMQPTHPIRLGLALNFSVFYYEIQNAPEQACLLAKQAFDDAIAELDTLNEDSYKDSTLIMQLLRDNLTLWTSDQQDEEAGEGN
B6: Cacna1c 1647-1777 (Mus musculus, UniProt Q01815); sequence looked up; chain NALSLQAGLRTLHDIGPEIRRAISGDLTAEEELDKAMKEAVSAASEDDIFRRAGGLFGNHVTYYQSDSRGNFPQTFATQRPLHINKTGNNQADTESPSHEKLVDSTFTPSSYSSTGSNANINNANNTALGR
B7: FIBH residues 1662-1810 (Bombyx mori); N-terminal Alexa Fluor 488; chain GAGAGSGAGAGSGAGAGSGAGAGSGAGAGYGAGYGAGAGAGYGAGAGSGAGSGAGAGSGAGAGSGAGAGSGAGAGSGAGAGSGAGAGSGAGAGSGAGSGSGAGAGSGAGAGSGAGAGYGAGVGAGYGVGYGAGAGAGYGAGAGSGAAS
B8: human DDX3Y; sequence looked up; chain SHVVVKNDPELDQQLANLDLNSEKQSGGASTASKGRYIPPHLRNREASKGFHDKDSSGWSCSKDKDAYSSFGSRDSRGKPGYFSERGSGSRGRFDDRGRSDYDGIGNRERPGFGRFERSGHSRWCDKSVEDDWSKPLPPSERLEQELFSGGNTGINFEKYDDIPVEATGSNCPPHIENFSDIDMGEIIMGNIELTRYTRPTPVQKHAIPIIKGKRDLMACAQTGSGKTAAFLLPILSQIYTDGPGEALKAVKENGRYGRRKQYPISLVLAPTRELAVQIYEEARKFSYRSRVRPCVVYGGADIGQQIRDLERGCHLLVATPGRLVDMMERGKIGLDFCKYLVLDEADRMLDMGFEPQIRRIVEQDTMPPKGVRHTMMFSATFPKEIQMLARDFLDEYIFLAVGRVGSTSENITQKVVWVEDLDKRSFLLDILGATGSDSLTLVFVETKKGADSLEDFLYHEGYACTSIHGDRSQRDREEALHQFRSGKSPILVATAVAARGLDISNVRHVINFDLPSDIEEYVHRIGRTGRVGNLGLATSFFNEKNMNITKDLLDLLVEAKQEVPSWLENMAYEHHYKGGSRGRSKSNRFSGGFGARDYRQSSGSSSSGFGASRGSSSRSGGGGYGNSRGFGGGGYGGFYNSDGYGGNYNSQGVDWWGN
B9: AKAP7 (Homo sapiens, UniProt O43687-2); sequence looked up; chain MGQLCCFPFSRDEGKISEKNGGEPDDAELVRLSKRLVENAVLKAVQQYLEETQNKNKPGEGSSVKTEAADQNGNDNENNRK
B10: RSPO4 32-137 Q65R (Homo sapiens, UniProt Q2I0M5); chain GGNCTGCIICSEENGCSTCQQRLFLFIRREGIRRYGKCLHDCPPGYFGIRGQEVNRCKKCGATCESCFSQDFCIRCKRQFYLYKGKCLPTCPPGTLAHQNTRECQGGGGGSGGGGSGGGGS
Chain of UniProt Q5BJF2 (whole entry, looked up): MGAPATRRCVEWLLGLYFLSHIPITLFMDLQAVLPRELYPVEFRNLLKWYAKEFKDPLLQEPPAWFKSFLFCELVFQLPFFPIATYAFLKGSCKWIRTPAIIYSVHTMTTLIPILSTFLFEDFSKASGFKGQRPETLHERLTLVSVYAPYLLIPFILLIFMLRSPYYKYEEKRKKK
Chain of UniProt P45481 (whole entry, looked up): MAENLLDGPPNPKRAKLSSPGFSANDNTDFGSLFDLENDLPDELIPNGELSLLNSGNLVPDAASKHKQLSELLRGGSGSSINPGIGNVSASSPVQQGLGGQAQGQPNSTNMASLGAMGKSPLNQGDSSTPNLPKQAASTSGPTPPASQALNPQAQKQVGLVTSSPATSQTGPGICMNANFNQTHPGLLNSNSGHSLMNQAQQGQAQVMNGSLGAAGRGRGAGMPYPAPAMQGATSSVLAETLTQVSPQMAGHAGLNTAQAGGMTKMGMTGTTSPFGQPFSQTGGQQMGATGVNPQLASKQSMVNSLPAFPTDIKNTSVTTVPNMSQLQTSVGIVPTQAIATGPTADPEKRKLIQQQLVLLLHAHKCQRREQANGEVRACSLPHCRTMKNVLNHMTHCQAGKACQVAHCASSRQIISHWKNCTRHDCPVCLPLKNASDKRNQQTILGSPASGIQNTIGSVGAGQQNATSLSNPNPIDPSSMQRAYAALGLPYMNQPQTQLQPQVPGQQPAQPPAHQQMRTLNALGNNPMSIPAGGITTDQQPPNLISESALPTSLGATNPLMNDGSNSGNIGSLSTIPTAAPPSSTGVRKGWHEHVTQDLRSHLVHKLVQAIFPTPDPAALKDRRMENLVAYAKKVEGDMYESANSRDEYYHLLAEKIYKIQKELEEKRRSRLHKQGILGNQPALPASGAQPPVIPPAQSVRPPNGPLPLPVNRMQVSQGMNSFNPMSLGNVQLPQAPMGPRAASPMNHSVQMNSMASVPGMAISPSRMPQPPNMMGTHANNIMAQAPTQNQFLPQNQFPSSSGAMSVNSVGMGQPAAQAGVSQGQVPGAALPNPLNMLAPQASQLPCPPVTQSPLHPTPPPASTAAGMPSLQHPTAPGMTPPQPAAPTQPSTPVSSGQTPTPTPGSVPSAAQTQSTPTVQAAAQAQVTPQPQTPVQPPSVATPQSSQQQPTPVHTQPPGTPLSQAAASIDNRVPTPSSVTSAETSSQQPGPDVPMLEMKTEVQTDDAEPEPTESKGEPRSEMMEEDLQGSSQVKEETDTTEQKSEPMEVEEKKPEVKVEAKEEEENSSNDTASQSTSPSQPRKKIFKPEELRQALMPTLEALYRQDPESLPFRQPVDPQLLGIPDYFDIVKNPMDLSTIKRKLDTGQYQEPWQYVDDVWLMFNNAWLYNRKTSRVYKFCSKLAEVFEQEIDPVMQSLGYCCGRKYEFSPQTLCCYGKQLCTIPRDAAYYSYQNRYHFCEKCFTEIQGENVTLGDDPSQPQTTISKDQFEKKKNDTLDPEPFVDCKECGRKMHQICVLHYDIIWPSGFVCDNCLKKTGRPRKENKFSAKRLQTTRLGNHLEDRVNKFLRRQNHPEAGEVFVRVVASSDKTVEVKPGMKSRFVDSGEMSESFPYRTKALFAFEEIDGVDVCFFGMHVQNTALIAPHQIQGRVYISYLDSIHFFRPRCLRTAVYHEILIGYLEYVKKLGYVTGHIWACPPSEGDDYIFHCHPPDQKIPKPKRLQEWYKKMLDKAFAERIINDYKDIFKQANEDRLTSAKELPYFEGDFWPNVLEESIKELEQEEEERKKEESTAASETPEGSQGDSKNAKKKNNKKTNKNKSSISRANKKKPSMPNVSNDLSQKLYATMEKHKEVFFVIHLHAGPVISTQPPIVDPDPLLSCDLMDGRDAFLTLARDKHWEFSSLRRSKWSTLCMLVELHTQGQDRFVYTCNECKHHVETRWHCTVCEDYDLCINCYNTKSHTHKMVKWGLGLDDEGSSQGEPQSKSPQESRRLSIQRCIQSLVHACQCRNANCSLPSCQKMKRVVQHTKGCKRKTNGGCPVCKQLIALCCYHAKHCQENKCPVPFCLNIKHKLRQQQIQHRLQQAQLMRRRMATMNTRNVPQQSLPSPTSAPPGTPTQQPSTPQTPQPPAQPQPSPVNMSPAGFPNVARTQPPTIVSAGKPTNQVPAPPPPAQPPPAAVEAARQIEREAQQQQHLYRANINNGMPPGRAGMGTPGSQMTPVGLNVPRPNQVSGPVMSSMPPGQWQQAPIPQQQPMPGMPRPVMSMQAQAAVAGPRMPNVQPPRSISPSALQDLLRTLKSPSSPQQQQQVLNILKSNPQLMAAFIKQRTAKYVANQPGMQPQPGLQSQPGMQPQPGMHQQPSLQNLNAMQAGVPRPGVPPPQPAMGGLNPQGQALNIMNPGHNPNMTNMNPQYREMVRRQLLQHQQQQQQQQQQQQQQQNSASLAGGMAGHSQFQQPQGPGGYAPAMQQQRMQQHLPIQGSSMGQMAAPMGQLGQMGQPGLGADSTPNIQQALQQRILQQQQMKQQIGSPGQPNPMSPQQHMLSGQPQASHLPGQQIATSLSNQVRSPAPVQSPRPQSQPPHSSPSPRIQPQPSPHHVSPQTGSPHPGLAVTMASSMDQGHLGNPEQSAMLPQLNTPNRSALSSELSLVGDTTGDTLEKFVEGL
Chain of UniProt Q23985 (whole entry, looked up): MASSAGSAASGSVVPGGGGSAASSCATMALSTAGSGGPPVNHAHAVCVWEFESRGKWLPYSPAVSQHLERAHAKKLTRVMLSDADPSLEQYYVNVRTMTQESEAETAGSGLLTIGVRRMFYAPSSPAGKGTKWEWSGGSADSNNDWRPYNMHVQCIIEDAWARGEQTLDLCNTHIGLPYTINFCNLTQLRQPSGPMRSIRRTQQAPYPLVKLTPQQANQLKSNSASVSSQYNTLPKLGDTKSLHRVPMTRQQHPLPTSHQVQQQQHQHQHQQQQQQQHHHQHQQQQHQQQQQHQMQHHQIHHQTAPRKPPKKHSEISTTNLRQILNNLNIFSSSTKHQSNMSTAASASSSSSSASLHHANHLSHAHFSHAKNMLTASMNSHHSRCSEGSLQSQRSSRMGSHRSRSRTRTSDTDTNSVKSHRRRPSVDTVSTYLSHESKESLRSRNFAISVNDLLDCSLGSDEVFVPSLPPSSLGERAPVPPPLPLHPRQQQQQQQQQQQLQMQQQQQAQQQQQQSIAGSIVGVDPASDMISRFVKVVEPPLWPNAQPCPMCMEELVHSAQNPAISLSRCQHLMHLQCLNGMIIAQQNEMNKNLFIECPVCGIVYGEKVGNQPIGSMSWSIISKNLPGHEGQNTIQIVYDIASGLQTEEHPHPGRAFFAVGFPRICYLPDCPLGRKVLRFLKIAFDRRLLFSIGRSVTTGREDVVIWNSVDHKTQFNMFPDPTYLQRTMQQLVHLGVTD
Chain of UniProt P02452 (whole entry, looked up): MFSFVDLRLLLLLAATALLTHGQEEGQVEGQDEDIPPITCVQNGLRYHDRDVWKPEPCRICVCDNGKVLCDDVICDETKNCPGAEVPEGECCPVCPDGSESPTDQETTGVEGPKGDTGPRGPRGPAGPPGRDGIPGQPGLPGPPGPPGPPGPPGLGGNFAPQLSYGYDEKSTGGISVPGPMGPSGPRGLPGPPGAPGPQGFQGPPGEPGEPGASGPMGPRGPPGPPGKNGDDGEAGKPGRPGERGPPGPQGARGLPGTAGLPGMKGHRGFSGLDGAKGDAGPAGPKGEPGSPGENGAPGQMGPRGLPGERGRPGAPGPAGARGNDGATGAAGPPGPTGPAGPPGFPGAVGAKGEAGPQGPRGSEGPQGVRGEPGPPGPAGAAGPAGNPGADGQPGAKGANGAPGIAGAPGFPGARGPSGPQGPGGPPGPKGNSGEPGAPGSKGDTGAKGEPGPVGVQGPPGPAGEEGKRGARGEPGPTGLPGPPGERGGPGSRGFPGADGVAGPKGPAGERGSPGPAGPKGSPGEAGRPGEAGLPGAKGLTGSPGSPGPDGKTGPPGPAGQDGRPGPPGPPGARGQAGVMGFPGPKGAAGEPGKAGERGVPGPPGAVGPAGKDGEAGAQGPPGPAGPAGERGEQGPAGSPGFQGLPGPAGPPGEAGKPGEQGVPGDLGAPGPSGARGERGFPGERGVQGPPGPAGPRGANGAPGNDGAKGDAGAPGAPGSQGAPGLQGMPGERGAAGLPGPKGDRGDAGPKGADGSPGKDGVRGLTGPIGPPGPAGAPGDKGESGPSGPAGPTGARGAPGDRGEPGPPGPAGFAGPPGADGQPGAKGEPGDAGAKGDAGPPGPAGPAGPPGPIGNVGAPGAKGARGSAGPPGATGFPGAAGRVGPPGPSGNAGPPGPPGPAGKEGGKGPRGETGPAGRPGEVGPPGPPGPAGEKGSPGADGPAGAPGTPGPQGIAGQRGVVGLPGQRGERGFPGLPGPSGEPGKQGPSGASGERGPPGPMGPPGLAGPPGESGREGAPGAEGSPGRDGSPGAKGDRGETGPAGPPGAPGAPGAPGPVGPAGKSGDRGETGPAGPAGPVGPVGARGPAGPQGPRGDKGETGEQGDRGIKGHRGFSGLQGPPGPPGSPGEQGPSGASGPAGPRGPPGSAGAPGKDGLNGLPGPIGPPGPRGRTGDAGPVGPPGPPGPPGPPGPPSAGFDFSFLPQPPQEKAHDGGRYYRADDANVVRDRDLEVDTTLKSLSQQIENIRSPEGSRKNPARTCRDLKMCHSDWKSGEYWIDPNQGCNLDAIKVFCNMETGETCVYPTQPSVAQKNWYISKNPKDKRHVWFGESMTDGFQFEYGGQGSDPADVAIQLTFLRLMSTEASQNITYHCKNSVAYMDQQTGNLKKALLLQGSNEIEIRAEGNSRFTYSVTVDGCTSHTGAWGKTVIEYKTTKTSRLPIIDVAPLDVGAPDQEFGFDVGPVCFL
Chain of UniProt Q9NWS0 (whole entry, looked up): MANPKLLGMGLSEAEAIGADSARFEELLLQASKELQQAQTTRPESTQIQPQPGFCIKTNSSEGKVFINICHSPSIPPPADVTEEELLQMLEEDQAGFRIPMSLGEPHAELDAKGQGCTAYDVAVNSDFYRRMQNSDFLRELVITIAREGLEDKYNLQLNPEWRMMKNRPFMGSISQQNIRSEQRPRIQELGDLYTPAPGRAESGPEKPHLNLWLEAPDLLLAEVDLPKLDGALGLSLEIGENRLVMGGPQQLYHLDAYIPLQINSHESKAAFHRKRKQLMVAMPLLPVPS

With `B1 (CDC48A 1-463)` the Kd was 5.1 ± 0.3 µM (PUX7 (Arabidopsis thaliana, UniProt Q94JZ8); ITC; 10 °C).
With `APOA1 mature (Homo sapiens)` the Kd was 0.134 µM (MMP2 359-660 (Homo sapiens, UniProt P08253); MST).
`YAGSDSDLDSDDEFVPY (TELO2 483-497 (Homo sapiens); pS491)` gave a Kd of 3.1 µM (PIH1D1 1-180 (Homo sapiens, UniProt Q9NWS0); ITC; peptide).
For `B2 (Pigr 19-135)`, the Kd was 1.19 µM (Igha/Jchain CH2-CH3 with J chain D137A/P136A (Mus musculus); SPR).
With `B3 (SRS2 1107-1174 Q1155E)` the Kd was 5.2 µM (POL30 1-258 K127G (Saccharomyces cerevisiae, UniProt P15873); fluorescence polarisation; apparent).
The Kd of `B4 (P4HB abb'x fragment)` is reported as 0.059 µM and 0.082 µM (ITGA2B/ITGB3 complex (Homo sapiens); SPR).
`GCVRLHESCLGQQVPCCDPAATCYCYGRGDNDLRCYCR (designed binder)` has a Kd of greater than 0.1 µM (ITGA2B/ITGB3 K562 cells; flow cytometry; designed binder, U87MG).
For `Homer EVH1 domain (Capsaspora owczarzaki)`, the Kd was 35.8 µM (RAX peptide (Homo sapiens); BLI).
`B5 (YWHAH)` has a Kd of 0.003 µM (NEDD4L full length isoform 5, pS342/pS428 (Homo sapiens, UniProt Q96PU5-5); AUC; without Ca2+).
`KLLMIIHDRREFAKFEKEKMNAKWDTQENPIYKSPINNFKNPNYGRKAGL (ITGB1 752-801 (Homo sapiens, UniProt P05556-5); sequence looked up)` gave a Kd of 54 µM (Tln2 312-408 S392A (Mus musculus, UniProt Q71LX4); NMR titration).
`SDLACRLLGQSMDESGLPQLTSYDCEVNAPIQGSRNLLQGEELLRALDQVN (HIF1A 776-826 (Homo sapiens, UniProt Q16665); sequence looked up)` gave a Kd of 0.014 µM (Crebbp 340-439 (Mus musculus, UniProt P45481); fluorescence polarisation).
With `Histone H4 fragment (Homo sapiens)` the Kd was 9 µM (KMT2D PHD triple cassette (Homo sapiens); fluorescence titration; with: tryptophan fluorescence).
`HTN1 fragment alanine substitutions at 9-11` has a Kd of 4.7 µM (TMEM97 (Homo sapiens, UniProt Q5BJF2); SPR).
`B6 (Cacna1c 1647-1777)` has a Kd of 63.6 µM (jph2 1-455 S165F (Danio rerio, UniProt A0ACM8QCS2); ITC).
`Cacna1c distal C-terminal regulatory (Rattus norvegicus)` gave a Kd of 66 ± 10 µM (CACNA1C IQ motif 1644-1668 F1648E, fluorescein label (UniProt P15381); fluorescence polarisation).
The Kd of `Notch ankyrin domain E226A/R227A/R107A (Drosophila)` is reported as 13 µM (dx (Drosophila melanogaster, UniProt Q23985); AUC).
For `RSSVITSA (ZBTB16 residues 285-292 (Homo sapiens))`, the Kd was 11.9 µM and 15.1 µM (IRF2BP2 fragment (Homo sapiens); ITC; peptide).
`B7 (FIBH residues 1662-1810)` has a Kd of 0.0272 ± 0.00063 µM (collagen I (Homo sapiens, UniProt P02452); FCS).
For `B8 (human DDX3Y)`, “log2 fold change” read 0.0268 (PP6C (human); co-immunoprecipitation, IP-MS; CYB5R4 knockout cells; concentration not given; baseline: CYB5R4 knockout over parental).
`B9 (AKAP7)` has a Kd of 0.023 µM (PRKCA (Homo sapiens, UniProt P17252); SPR).
`evolocumab, partial Asn deamidation` gave a Kd of 0.00068 µM (PCSK9 (Homo sapiens, UniProt Q8NBP7); SPR).
`human TUBB4B` — result for “log2 fold change”: -0.59 (PP6C (human); co-immunoprecipitation, IP-MS; CYB5R4 knockout cells; concentration not given; baseline: CYB5R4 knockout over parental).
With `TRTKIDWNKILS (CAPZA1 residues 265-276)` the Kd was 0.21 ± 0.03 µM (S100B (Bos taurus, UniProt P02638); fluorescence titration; peptide).
For `B10 (RSPO4 32-137 Q65R)`, the Kd was 0.0005 µM (LGR4 (Homo sapiens, UniProt Q9BXB1); whole-cell binding saturation; Fc fusion, HEK293T).
For `PARRSEELVAEAHNLCTLLENAIQDTVREQDQSFTALDWSWLQTE (IKBKB 701-745 K703R/K704R (UniProt O14920); N-terminal FITC; sequence looked up)`, the Kd was 4.08 µM (IKBKG residues 44-113 T50E/L55R/R75V/E78R; fluorescence polarisation; peptide).
